# Results gathered from unrelated publications.
# Numbers after ± are the reported error.
# OPRK1: Kappa-type opioid receptor (OPRK1, Homo sapiens, UniProt P41145)
# Chain of UniProt P41145 (whole entry, unmodified, looked up): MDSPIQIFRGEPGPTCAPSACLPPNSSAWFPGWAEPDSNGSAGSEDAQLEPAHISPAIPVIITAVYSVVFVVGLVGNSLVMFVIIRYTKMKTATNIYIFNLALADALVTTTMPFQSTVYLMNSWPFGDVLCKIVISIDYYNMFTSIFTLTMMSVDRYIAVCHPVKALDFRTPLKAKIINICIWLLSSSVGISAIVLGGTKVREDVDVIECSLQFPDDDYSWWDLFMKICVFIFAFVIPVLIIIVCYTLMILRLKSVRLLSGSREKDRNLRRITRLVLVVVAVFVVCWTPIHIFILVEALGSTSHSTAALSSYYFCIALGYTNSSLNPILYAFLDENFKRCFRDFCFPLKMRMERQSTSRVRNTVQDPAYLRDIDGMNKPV
Structure (SMILES),target,test,test system,setting,quantity,result
Oc1cccc(N2C3CCC2CN(CCc2ccccc2)C3)c1,OPRK1,cell-based,,,IC50,698 ± 40 nM
Cc1cccc(C)c1N1C(=O)[C@H](CO)NC2(CCN(C)CC2)C1=O,OPRK1,binding,,,Ki,> 10000 nM
C[C@H]1N=C(c2ccccc2F)c2cc(Br)ccc2-n2cnc(C(=O)O)c21,OPRK1,binding,,,IC50,> 10000 nM
C/C=C1/C[N+]2(CCC)CC[C@]34C(=C(C(=O)OC)[C@H]1C[C@@H]32)Nc1ccccc14 (stereo partly shown),OPRK1,"cAMP inhibition, agonist, HitHunter",CHO-K1,with: forskolin,EC50,> 10000 nM
NC(N)=Nc1ccc2[nH]c3c(c2c1)C[C@@]1(O)[C@H]2Cc4ccc(O)c5c4[C@@]1(CCN2CC1CC1)[C@H]3O5,"Kappa-type opioid receptor (OPRK1, Homo sapiens, UniProt P41145, E297A)",,,,Ki,22 nM
Cc1cc(O)cc(C)c1C[C@H](N)C(=O)N1Cc2ccccc2CC1C(=O)NCC(=O)NC(Cc1ccc(Cl)cc1)C(=O)N(C)CCC[C@@]1(c2ccc(F)cc2)OCc2cc(C#N)ccc21 (stereo in doubt),OPRK1,,,,IC50,324 nM
COc1cc(C(=O)N2CC[C@@H](O)[C@@H](N)C2)cc2nc(-c3cc4ccccc4n3CC3CC3)n(C)c12,OPRK1,"antagonist, GTPγS binding",,,IC50,79400 nM
C/C=C1/C[N+]2(Cc3ccccc3)CC[C@]34C(=C(C(=O)OC)[C@H]1C[C@@H]32)Nc1ccccc14 (stereo partly shown),OPRK1,"cAMP inhibition, agonist, HitHunter",CHO-K1,with: forskolin,EC50,> 10000 nM
Cc1cccc(C)c1N1C(=O)CNC2(CCN(C)CC2)C1=O,OPRK1,binding,,,Ki,> 10000 nM
CCCC[C@@H](NC(=O)[C@@H](N)Cc1ccc(O)cc1)C(=O)NCC(=O)N[C@@H](Cc1ccc(F)cc1)C(=O)N(C)CCC[C@@]1(c2ccc(F)cc2)OCc2cc(C#N)ccc21,OPRK1,,,,IC50,245 nM
COC(=O)/C=C/C(=O)N[C@@H]1CC[C@@]2(O)[C@H]3Cc4ccc(O)c5c4[C@@]2(CCN3CC2CC2)[C@H]1O5,OPRK1,"reversible binding, radioligand saturation binding",N2a membranes,with: [3H]compound,Kd,5.95 ± 0.94 nM
C/C=C1/C[N+]2(C)CC[C@]34C(=C(C(=O)OC)[C@H]1C[C@@H]32)Nc1ccccc14 (stereo partly shown),OPRK1,"cAMP inhibition, agonist, HitHunter",CHO-K1,with: forskolin,EC50,> 10000 nM
CCCC[C@@H](NC(=O)[C@@H](N)Cc1c(C)cc(O)cc1C)C(=O)NCC(=O)N[C@@H](Cc1ccc(F)cc1)C(=O)N(C)CCC[C@@]1(c2ccc(F)cc2)OCc2cc(C#N)ccc21,OPRK1,,,,IC50,12 nM

# For quick reference, copied from above:
Structure (SMILES),target,test,test system,setting,quantity,result
C/C=C1/C[N+]2(CCC)CC[C@]34C(=C(C(=O)OC)[C@H]1C[C@@H]32)Nc1ccccc14 (stereo partly shown),OPRK1,"cAMP inhibition, agonist, HitHunter",CHO-K1,with: forskolin,EC50,> 10000 nM
CCCC[C@@H](NC(=O)[C@@H](N)Cc1c(C)cc(O)cc1C)C(=O)NCC(=O)N[C@@H](Cc1ccc(F)cc1)C(=O)N(C)CCC[C@@]1(c2ccc(F)cc2)OCc2cc(C#N)ccc21,OPRK1,,,,IC50,12 nM
